Published values from different studies.
Numbered parts are unrelated; each lists some results of a single study. Changes are numbered by the printed parent chain.

Block 1 — target: CCNF, cyclin fold, Cln2 fusion (human); method: yeast growth competition, sequencing; sample: yeast; notes: strong parent motif; baseline: not given; direction: higher = stronger binding; quantity: normalised enrichment score
Starting sequence: WEE1 docking peptide (human); HKTFRKLRLFDTP
L9T: 0.346
P13K: 3.33
K2M: 1.56
R8W: 3.94
H1R: 1.17
P13G: 1.97
L9I: 0.967
F4P: 2.05
F10S: 1.58
T3E: 0.608
L9Q: 1.93
P13E: 1.45
T12V: 2.9
K6G: 1.81
K2E: 1.91
F4M: 2.6
L9K: 3.21
L9S: 1.48
F10Y: 1.66
K6I: 2.01
T12A: 2.5
L9A: 1.63
F10E: 1.46
L9C: 1.25
R5M: 1.87

Block 2 — target: CEP164, C-terminal peptide (human); method: DHFR complementation, deep sequencing; sample: yeast; baseline: wild type; direction: higher = weaker binding; quantity: binding free energy change
Notes: single substitutions, model-inferred values
Starting sequence: PDZK1, PDZ domain 2 (human); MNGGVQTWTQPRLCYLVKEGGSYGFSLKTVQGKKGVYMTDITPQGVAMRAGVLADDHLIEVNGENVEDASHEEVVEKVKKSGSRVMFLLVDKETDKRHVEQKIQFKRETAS; partner HNRVKVYRF
G82W: 0.447 kcal/mol
N2L: -0.0808 kcal/mol
S22Y: -0.194 kcal/mol
K18V: 0.955 kcal/mol
K77D: 0.655 kcal/mol
S111K: 0.113 kcal/mol
E93D: -0.0399 kcal/mol
G51L: 1.1 kcal/mol
L88H: 0.195 kcal/mol
Y37C: 0.483 kcal/mol
L53V: 0.0193 kcal/mol
V90I: -0.151 kcal/mol
A50E: 0.279 kcal/mol
V85R: 1.41 kcal/mol

Block 3 — target: CREB3L3, bZIP domain (human); method: DHFR protein complementation; sample: yeast; baseline: wild-type JUN-FOS pair; direction: higher = stronger binding; quantity: binding fitness
Notes: single substitutions, most at no-binding floor
Starting sequence: JUN, bZIP domain (human); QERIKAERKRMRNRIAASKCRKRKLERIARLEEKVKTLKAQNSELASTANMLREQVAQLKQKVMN; partner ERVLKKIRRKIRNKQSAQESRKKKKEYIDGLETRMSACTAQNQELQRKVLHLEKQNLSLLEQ
R53H: -1.58 natural log
K36A: -1.41 natural log
A40G: -1.49 natural log
A49G: -1.46 natural log
A29I: -1.48 natural log
L45M: -1.49 natural log
R53P: -1.51 natural log
L45T: -1.51 natural log
N42V: -1.45 natural log
R30P: -1.46 natural log
E54D: -1.53 natural log
A49W: -1.47 natural log
S47Q: -1.47 natural log
I28T: -1.54 natural log

Block 4 — method: RNA Bind-n-Seq; molecule type: RNA; sample: in vitro; concentration: 365 nM; baseline: no-protein control; direction: higher = stronger binding; quantity: RBNS enrichment (R)
Target: RNA binding protein fox-1 homolog 2, RRM domain, GST-SBP tag (RBFOX2, Homo sapiens, UniProt O43251-10, residues 100-194)
Notes: natural RNA segment, single round, ends assumed
Construct (chain): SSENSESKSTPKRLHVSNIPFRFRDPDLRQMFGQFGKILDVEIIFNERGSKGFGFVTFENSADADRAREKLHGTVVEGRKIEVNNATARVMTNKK
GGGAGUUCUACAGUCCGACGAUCAUCUAAAGUUUGUUAGAUAGCUGCAUGUGGCUUUUUUAAAAAAGCAACAGAAACCUAUCCUCACUGCCCUCCCCAGUCUCUCUUAAAGUUGGAAUUUACCAGUUAAUUACUGGAAUUCUCGGGUGCCAA: 0.426
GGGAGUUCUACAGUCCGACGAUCUGAAAACAACUAAUUUAAAUUUGCUUUGUUUUCUUUUUUAAGUUGAAUUGACGUUAAUGUGUUUUCACUGGAUUUUAUCUCUCUCAACUUCCUGCACUUAAAAUUUGAAAUGGAAUUCUCGGGUGCCAA: 0.9
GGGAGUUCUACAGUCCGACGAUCUUUUACAUUCUUCUGCUGCAUCCAUACAAUGCUCCACUGCUGUUGAGUGUCCUUUAACUGUGGACCAAAGGCAACCCCUGCAGUGUUUAUAAAACAAUUUUAAGACCAUUUGGAAUUCUCGGGUGCCAA: 0.569
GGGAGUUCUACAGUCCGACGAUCUCUUUUGUAACUUUACAGAGGAUCAAAGCCGUUCUUUUCCAUUUCUUGGCCAGGCCUGUACUCUCCCGCAUAGAGGCUUUCCUUUCCCUCCUAUUUGCGUCACGCCUUCCUGGAAUUCUCGGGUGCCAA: 0.59
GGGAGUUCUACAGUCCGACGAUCAUCCCUUACCAUCCAAGGGGCACUCCCUUGGUUGGAUUUUCUAUGACAGCACAGGGGACAGGUGGCACACCAUGAGAGGUCUGCCCAGGGUGGGAGCAGUGUCACUGUGCUGGAAUUCUCGGGUGCCAA: 0.351
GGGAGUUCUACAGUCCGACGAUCGGAAGGCUGUUAUACUCAGUGCCCGCCUUUGACCUAAAGCUGGCCAGCAUCCCUGGGGAAACCUGACUUGCAAUUUCUAGAGUUUAAGAUCUUCCCAUCGGCUGUGGCAAUGGAAUUCUCGGGUGCCAA: 0.32
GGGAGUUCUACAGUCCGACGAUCAGGUGCUCACUGACUCGCUAAGACGACUUUGGCCCUGUUGAUGACUGGUGCUGUGCUCCAGCCUUAUCAGUUAGGGGACCCAAGGUUUGUUUGGGACCUGGGUACAGGUAUGGAAUUCUCGGGUGCCAA: 0.374
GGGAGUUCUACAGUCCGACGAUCUUCUCUAGUUCCCUGGCUCAGUAGGACAUUUCUUCCACCCACUCCCAGUCCCCCAACACUCCCUUCUUCGGAUACAGGUGCCAAAGAACAUUGUGAAGAAAUGAAGAACCUGGAAUUCUCGGGUGCCAA: 0.3
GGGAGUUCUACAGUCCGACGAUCGACAACUUCCUUCCUUUAAGAUGCUAAGUGGUGAACUUUACUGUUUUGUACAGUGAACUGUGACUUUGUUGAUGUUUGCUUUAGCUAUAUUCAAGGCAGUGGUCUGUGGCUGGAAUUCUCGGGUGCCAA: 0.504
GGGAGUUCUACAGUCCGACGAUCUCUCUGGUAAUCAUGAACCUUUCUCCUAGGGUGUUUGUUUUGUUUUCAUAAUAAAAAGGGAAAGAAGUUGUGUCUGUGUGGUGCUCUUUGCUGCAAUGCCUCUUUGUAAGUGGAAUUCUCGGGUGCCAA: 1.11
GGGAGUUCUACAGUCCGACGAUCUAACCUAAUUUGUCCAAAUCACCCCAAAACCACCAUCUCUGACGUAAGCUUCCAUGCGACAGCCUGAUCCGUUUCCCUGGACAGGUCUCUUUCCUGGAAUGCAGCCCAGGUGGAAUUCUCGGGUGCCAA: 0.811
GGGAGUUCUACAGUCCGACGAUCAUACCUAUAUCUUCCAGAUGUCCUCAUCUGCUGCAGGGCUUUGGCCCUGCUCAGGAUAAUGUGCUAUGAGCCCUCAUCUGACUCUCAGUUUGUACUGGAGAACCAUACAGUGGAAUUCUCGGGUGCCAA: 0.154

Block 5 — method: universal PBM; molecule type: double-stranded DNA, one strand shown; sample: in vitro; concentration: 600 nM; direction: higher = stronger binding; quantity: E-score
Target: Sal-like protein 4, full length isoform A (SALL4, Homo sapiens, UniProt Q9UJQ4, residues 1-1053)
UniProt Q9UJQ4, sequence (whole entry, looked up): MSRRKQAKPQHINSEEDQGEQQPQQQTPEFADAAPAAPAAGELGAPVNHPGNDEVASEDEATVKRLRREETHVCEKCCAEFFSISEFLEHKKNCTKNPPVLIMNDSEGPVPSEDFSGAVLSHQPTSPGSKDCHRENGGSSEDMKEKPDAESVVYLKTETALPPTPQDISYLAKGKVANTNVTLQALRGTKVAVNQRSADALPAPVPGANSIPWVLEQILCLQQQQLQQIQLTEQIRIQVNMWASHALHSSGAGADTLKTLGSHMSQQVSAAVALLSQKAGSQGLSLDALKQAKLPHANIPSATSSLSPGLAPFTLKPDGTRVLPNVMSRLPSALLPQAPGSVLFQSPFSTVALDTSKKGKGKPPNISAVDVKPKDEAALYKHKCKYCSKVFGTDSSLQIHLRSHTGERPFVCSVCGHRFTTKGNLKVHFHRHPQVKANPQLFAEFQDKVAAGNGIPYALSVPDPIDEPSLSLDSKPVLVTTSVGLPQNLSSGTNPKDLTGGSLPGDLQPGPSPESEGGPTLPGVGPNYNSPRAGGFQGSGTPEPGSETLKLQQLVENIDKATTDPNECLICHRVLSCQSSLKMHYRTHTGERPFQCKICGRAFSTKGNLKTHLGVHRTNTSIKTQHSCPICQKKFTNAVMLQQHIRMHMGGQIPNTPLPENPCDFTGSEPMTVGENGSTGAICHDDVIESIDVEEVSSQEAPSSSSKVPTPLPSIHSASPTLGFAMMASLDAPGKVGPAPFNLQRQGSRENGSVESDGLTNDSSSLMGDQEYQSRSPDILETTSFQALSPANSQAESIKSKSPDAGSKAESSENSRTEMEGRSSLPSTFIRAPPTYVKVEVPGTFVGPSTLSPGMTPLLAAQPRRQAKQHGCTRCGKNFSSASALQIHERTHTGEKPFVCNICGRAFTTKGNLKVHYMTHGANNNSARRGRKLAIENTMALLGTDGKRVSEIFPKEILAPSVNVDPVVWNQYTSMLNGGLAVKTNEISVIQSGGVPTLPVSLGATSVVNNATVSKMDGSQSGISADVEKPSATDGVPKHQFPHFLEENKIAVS
Notes: 8-mer, flanks averaged, mean of replicates
AATAGCTA: 0.307
CACCGGTA: -0.204
AACAACAG: 0.0798
CCAAGCAA: -0.115
GGATAAAA: 0.234
GCATACGC: -0.00553
GAAACGCA: -0.0744
GACAACGC: -0.18
TCATTGGA: 0.0667
AAGGCATC: -0.137
GGGCGCAA: -0.167
AAAAGAGA: 0.0855
ACTTTCCT: -0.027
ATACAGTG: 0.164
ATCTTCGG: 0.145
TAAAATTA: 0.327
GATTACGC: 0.0952
AAATGCAT: 0.206
CGTTGGGA: -0.115
CAGAATCA: -0.0669
TATACTAA: 0.288
AACGAATG: 0.0437
AGCCGCTA: -0.268
ACTCCCAA: 0.0511
ACTCTAGG: -0.188

Block 6 — method: DHFR PCA, dose-response; sample: yeast; notes: Hill fit, mean, not affinity; with: (+)-ABA, dose series; direction: lower = more sensitive; quantity: ABA EC50
Target: ABI1, truncated, D143A, DHFR fusion (Arabidopsis thaliana, UniProt P49597)
Starting sequence: PYL1, truncated, DHFR fusion (Arabidopsis thaliana, UniProt Q8VZS8); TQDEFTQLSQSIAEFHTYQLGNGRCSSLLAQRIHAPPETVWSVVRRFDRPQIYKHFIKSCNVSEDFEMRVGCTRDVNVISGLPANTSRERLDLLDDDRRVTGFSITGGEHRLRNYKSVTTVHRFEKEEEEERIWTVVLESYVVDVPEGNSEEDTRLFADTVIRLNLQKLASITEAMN
D96K: 493 µM
S117Q: 68.2 µM
E14V: 15.9 µM
Q31Y: 33.9 µM
A158G: 52.9 µM
S9A: 1.91 µM
I105M: 40.8 µM
N22C: 3.31 µM
E130K: 2.07 µM
T17Q: 9.31 µM
V44M: 52.3 µM
V43M: 8.22 µM
S11V: 1.44 µM

Block 7 — method: aptamer microarray, sandwich; molecule type: DNA with 2'F-ANA; sample: in vitro; concentration: 200 nM; with: Cy3 exosite-II aptamer, 400 nM; direction: higher = stronger binding; quantity: mean fluorescence intensity; sequence: GGTTGGTGTGGTTGG
Target: Prothrombin, mature alpha-thrombin (F2, Homo sapiens, UniProt P00734)
Notes: whole 15-mer aptamer, many near background
2'F-ANA at 4 5 6 7 8 9 11 12: 96 a.u.
2'F-ANA at 1 3 5 9 10 11 15: 54.5 a.u.
2'F-ANA at 2 4 5 6 7 9 10 13 15: 51.5 a.u.
2'F-ANA at 1 3 4 6 7 8 11: 202 a.u.
2'F-ANA at 1 2 3 6 9 10 12 13: 77.7 a.u.
2'F-ANA at 1 5 6 7 8 9 10 15: 46.1 a.u.
2'F-ANA at 1 2 3 4 8 11 12 13 14 15: 75 a.u.
2'F-ANA at 2 5 6 11 12 14 15: 50.3 a.u.
2'F-ANA at 2 3 4 8 9 11 14: 361 a.u.
2'F-ANA at 6 7 8 9 11 13: 408 a.u.
2'F-ANA at 1 4 5 9 13: 50.1 a.u.
2'F-ANA at 3 5 6 9 10 12: 66.8 a.u.
2'F-ANA at 1 2 3 4 5 6 9 12 15: 125 a.u.
2'F-ANA at 1 4 5 8 11 14: 45.9 a.u.
2'F-ANA at 4 6 7 8 11 12 14 15: 105 a.u.
2'F-ANA at 1 3 6 7 8 12 13 14: 130 a.u.
2'F-ANA at 1 2 3 4 5 6 7 9 12 14 15: 46.6 a.u.
2'F-ANA at 5 9 10 11: 54.5 a.u.
2'F-ANA at 2 3 4 5 6 7 8 10 11 13 14: 49.7 a.u.
2'F-ANA at 1 2 5 7 9 11: 54.3 a.u.
2'F-ANA at 1 2 3 5 7 12 13 15: 86.8 a.u.

Mixed results
PhoQ, residues 284 288 289 292 302 303 SSCLAV
fold induction (PhoP, residues 12 14 15 18 19 TQALL (Escherichia coli, UniProt P23836); Sort-seq, item: YFP reporter; E. coli; PhoQ-PhoP variant library, with: 10 µM Mg2+; baseline: high Mg2+ state, higher = stronger signaling): 7.06

For quick reference, copied from above (block 1):
H1R: 1.17
K2M: 1.56
P13E: 1.45
L9S: 1.48
L9T: 0.346
L9A: 1.63
L9Q: 1.93
R5M: 1.87
F10S: 1.58
K6G: 1.81
L9I: 0.967
